Results of several laboratories.
Each numbered part is a random draw from the data of one study; scales do not carry over between parts. Values joined by “and” are separate records of one study, mostly repeats; a detail may differ.
Sequence of UniProt O75417 (whole entry, unmodified, looked up): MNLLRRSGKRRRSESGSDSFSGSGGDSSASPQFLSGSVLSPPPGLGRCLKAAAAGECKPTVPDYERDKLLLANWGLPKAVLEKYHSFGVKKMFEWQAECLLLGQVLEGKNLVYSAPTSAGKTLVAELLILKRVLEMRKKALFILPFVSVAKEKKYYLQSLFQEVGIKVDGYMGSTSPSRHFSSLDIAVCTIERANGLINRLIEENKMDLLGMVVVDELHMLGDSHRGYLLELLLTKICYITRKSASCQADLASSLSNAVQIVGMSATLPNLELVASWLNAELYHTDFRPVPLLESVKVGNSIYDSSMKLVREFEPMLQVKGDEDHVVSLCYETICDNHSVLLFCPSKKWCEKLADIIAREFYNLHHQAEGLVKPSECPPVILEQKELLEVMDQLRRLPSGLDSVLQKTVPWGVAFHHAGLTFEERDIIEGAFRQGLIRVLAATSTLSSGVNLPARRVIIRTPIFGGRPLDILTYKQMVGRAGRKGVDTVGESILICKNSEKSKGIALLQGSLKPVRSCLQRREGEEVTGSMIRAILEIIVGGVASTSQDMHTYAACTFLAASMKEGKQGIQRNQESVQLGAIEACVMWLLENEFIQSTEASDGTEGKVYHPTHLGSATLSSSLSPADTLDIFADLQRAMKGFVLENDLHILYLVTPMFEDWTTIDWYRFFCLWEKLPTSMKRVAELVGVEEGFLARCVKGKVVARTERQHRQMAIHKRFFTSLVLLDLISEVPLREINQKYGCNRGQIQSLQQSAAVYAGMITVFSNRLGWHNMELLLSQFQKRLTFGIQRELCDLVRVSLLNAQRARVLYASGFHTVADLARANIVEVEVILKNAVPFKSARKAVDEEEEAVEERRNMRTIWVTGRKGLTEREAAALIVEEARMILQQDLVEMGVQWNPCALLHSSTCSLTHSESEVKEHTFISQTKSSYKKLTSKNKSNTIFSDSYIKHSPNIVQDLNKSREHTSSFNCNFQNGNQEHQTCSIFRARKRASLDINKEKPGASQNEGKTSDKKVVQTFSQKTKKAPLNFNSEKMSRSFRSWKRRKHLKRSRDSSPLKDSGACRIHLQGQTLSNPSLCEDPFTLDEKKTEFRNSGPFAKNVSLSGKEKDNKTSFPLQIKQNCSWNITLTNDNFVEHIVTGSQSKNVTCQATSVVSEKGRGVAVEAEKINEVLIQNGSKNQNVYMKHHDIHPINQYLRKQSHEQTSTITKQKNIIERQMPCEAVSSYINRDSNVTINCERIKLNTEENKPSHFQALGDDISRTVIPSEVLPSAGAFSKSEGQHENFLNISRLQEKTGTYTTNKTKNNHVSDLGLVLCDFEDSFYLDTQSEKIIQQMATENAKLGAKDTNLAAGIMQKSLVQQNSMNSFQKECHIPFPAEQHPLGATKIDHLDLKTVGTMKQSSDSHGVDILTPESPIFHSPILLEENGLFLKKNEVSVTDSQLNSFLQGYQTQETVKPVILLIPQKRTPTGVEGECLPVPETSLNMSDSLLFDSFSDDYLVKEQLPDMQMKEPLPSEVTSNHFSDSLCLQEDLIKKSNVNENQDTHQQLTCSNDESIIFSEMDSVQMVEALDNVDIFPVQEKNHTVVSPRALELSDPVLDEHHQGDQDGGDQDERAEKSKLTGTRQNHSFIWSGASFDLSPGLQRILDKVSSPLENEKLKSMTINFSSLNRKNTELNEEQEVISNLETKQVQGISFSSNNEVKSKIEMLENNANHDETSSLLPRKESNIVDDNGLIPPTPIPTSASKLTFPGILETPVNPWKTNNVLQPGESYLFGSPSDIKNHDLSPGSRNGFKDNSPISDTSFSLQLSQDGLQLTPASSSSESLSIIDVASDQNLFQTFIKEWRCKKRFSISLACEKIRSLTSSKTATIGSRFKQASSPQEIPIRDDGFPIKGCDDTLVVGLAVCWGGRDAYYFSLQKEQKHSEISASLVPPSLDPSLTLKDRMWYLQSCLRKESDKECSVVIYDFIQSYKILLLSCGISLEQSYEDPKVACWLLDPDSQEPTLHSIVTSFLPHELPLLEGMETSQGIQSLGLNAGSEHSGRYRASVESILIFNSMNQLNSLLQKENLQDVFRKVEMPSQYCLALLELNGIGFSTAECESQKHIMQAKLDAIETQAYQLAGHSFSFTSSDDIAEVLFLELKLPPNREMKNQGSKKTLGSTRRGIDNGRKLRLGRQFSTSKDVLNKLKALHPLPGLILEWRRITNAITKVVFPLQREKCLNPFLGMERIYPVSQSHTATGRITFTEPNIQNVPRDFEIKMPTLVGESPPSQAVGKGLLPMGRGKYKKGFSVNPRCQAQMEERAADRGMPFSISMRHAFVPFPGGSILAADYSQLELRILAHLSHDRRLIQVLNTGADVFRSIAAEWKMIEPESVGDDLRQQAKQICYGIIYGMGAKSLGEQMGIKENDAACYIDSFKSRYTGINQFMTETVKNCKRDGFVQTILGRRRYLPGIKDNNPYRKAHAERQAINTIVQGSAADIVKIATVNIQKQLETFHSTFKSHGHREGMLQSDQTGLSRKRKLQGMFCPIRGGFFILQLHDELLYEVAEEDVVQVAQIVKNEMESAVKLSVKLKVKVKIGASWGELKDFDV
Sequence of UniProt Q9UQM7 (whole entry, looked up): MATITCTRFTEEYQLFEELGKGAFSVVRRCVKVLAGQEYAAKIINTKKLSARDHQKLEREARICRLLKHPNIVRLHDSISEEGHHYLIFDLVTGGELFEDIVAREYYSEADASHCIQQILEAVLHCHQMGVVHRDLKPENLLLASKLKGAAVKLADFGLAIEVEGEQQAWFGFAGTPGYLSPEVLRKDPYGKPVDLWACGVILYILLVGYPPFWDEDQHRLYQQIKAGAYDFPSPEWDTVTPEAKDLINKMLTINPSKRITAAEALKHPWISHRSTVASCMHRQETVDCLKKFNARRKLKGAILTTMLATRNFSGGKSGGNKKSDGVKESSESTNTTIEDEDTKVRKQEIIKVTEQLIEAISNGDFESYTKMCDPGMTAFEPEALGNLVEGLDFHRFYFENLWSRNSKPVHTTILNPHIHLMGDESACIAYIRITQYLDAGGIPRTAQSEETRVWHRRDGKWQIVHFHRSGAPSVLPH

Sample 1
Target: Replicase polyprotein 1ab, main protease (rep, Severe acute respiratory syndrome coronavirus 2, UniProt P0DTD1)
Effect on: enzyme activity
Mode: inhibitor
Concentration: 20 µM
Notes: primary screen
Endpoint: inhibition
c1cc2c(cc1C1CCCCC1)c1c3n2CCNC3CCC1 (centres unmarked): 39%
Cc1ccc2c(c1)C1CN(C)CCC1N2 (centres unmarked): 37.9%
NC(=O)c1cc[n+](CC2=C(C(=O)O)N3C(=O)[C@@H](NC(=O)Cc4cccs4)[C@H]3SC2)cc1: 34.1%

Sample 2
Target: Replicase polyprotein 1ab, polymerase (rep, Severe acute respiratory syndrome coronavirus 2, UniProt P0DTD1)
Effect on: enzyme activity
Mode: inhibitor
Concentration: 20 µM
Endpoint: inhibition
CO[C@H]1O[C@@H]2O[C@@]3(C)CC[C@H]4[C@H](C)CC[C@@H]([C@H]1C)[C@@]24OO3: 0.92%
Cn1c2cc([S+](C)[O-])sc2c2cnn(Cc3cccc(N)c3)c(=O)c21 (centres unmarked): -0.18%
CON(C)C(=O)N1N=C(c2cc(F)ccc2F)S[C@@]1(CCCN)c1ccccc1: -2.95%
Cc1cc(C)cc(NC(=O)Cc2ccc(OC(C)(C)C(=O)O)cc2)c1: -2.18%
O=C(O)CCC(=O)C(=O)O: 4.08%
CCOc1ccc(Cc2cc([C@@H]3O[C@H](CO)[C@@H](O)[C@H](O)[C@H]3O)ccc2Cl)cc1: 4.9%
Nc1ccc2cc3ccc(N)cc3nc2c1: -27.3%
C[C@]12CCC(=O)C[C@@H]1CC[C@@H]1[C@@H]2CC[C@]2(C)C=CC[C@@H]12: -4.55%
O=C(O)[C@H](Cc1ccccc1)NCc1ccc(Cl)cc1: 3.26%
CN(C)N(C)C(=O)[C@@]1(Cc2ccccc2)CCCN(C(=O)[C@@H](Cc2c[nH]c3ccccc23)NC(=O)C(C)(C)N)C1: -4.09%
CN1C(=O)CCS(=O)(=O)C1c1ccc(Cl)cc1 (centres unmarked): -0.94%
COc1ccc2cc1Oc1cc3c(cc1OC)CC[N+](C)(C)[C@H]3Cc1ccc(cc1)Oc1c(OC)c(OC)cc3c1[C@@H](C2)[N+](C)(C)CC3: -3.39%
CC[C@@H](C(N)=O)N1CCCC1=O: -0.71%
O=C(O)C(=O)CBr: -4.28%
Cc1cc(C(=O)O)sc1C(N)C(=O)O (centres unmarked): -13.9%
N#Cc1ccccc1-c1cc(-c2ccccn2)cn(-c2ccccc2)c1=O: -5.6%
CCc1cncnc1N1CCN(Cc2nc3ccc(C(F)(F)F)cc3[nH]2)CC1: 0.27%
CCc1cccc(CC)c1NC1=NCCN1: 0.27%
CCN(CC)CCNC(=O)c1cc(S(C)(=O)=O)ccc1OC: 2.93%
O=C(O)c1ccc(N2C(=O)/C(=C\c3ccc(-c4ccc([N+](=O)[O-])cc4)o3)C=C2c2ccccc2)cc1: 14%
CC(=O)O[C@@H]1C[C@H]2C(C)(C)C(=O)C=C[C@]2(C)[C@H]2CC[C@@]3(C)[C@H](c4ccoc4)OC(=O)[C@H]4O[C@]43[C@@]21C: 11.1%
CNC(=O)ON(C(C)=O)C(=O)NC: 0.32%
O=C(O)c1ccc(S(=O)(=O)N(Cl)Cl)cc1: 27.9%
O=C1CCC[C@@H]2[C@H]3CCC[N+]4([O-])CCC[C@@H](CN12)[C@@H]34 (some centres unmarked): -4.39%
C[C@@H]1CN(Cc2ccc(F)cc2)[C@@H](C)CN1C(=O)c1cc2c(C(=O)C(=O)N(C)C)cn(C)c2cc1Cl: 1.67%

Other studies, line by line
rep main protease: Replicase polyprotein 1ab, main protease (rep, Severe acute respiratory syndrome coronavirus 2, UniProt P0DTD1)
CC[C@H](C)[C@H](NC(=O)[C@H](C)NC(=O)[C@H](CCC(=O)O)NC(=O)[C@H](CCC(=O)O)NC(=O)[C@H](CC(C)C)NC(=O)[C@H](CCCCN)NC(=O)[C@H](CCCCN)NC(=O)[C@H](CCSC)NC(=O)[C@H](CCC(=O)O)NC(=O)[C@H](Cc1ccc(O)cc1)NC(=O)[C@H](CCC(=O)O)NC(=O)[C@H](CC(C)C)NC(=O)[C@H](CC(=O)O)NC(=O)[C@H](CC(C)C)NC(=O)[C@H](Cc1ccccc1)NC(=O)[C@@H](NC(=O)[C@@H](NC(=O)[C@H](CC(N)=O)NC(=O)[C@@H](NC(=O)[C@H](CCC(N)=O)NC(=O)[C@H](CC(=O)O)NC(=O)[C@H](CC(C)C)NC(=O)[C@@H](N)CO)[C@@H](C)CC)C(C)C)[C@@H](C)O)C(=O)N[C@@H](CCCCN)C(=O)N[C@@H](CCCCN)C(=O)N[C@@H](CC(C)C)C(=O)N[C@@H](CCC(=O)O)C(=O)N[C@@H](CCC(=O)O)C(=O)N[C@@H](CO)C(=O)N[C@@H](Cc1ccc(O)cc1)C(=O)N[C@H](C(=O)N[C@@H](CC(=O)O)C(=O)N[C@@H](CC(C)C)C(=O)N[C@@H](CCCCN)C(=O)N[C@@H](CCC(=O)O)C(=O)N[C@@H](CC(C)C)C(=O)NCC(=O)N[C@@H](CO)C(=O)NCC(=O)N[C@@H](CO)C(=O)NCC(=O)NCCOCCOCCOCCOCCC(=O)N[C@@H](CSCC(=O)O[C@H]1CC[C@@]2(C)C(=CC[C@H]3[C@@H]4CC[C@H]([C@H](C)CCCC(C)C)[C@@]4(C)CC[C@@H]32)C1)C(N)=O)[C@@H](C)CC — loss of inhibitory activity (SARS-CoV-2; pseudovirus infection; mouse serum; concentration not given): ~40%
COc1ccc2c(c1)[C@]13CCCC[C@@H]1[C@H](C2)N(C)CC3 — viral replication inhibition (SARS-CoV-2; concentration not given, Paris laboratory): inactive
N#CC(=Cc1ccc(O)cc1)C(=O)O — nuclei count (mouse MPNST tumor cells; high-content nuclear imaging, measured: cell number; 10 µM, 12 h, mean of 2 replicates; relative to: plate mean, higher = more cells): 1.14 z-score
Cc1ncsc1-c1ccc(CNC(=O)[C@@H]2C[C@@H](O)CN2C(=O)[C@@H](NC(=O)COCCOCCOCCNC(=O)C[C@@H]2N=C(c3ccc(Cl)cc3)c3c(sc(C)c3C)-n3c(C)nnc32)C(C)(C)C)cc1 — viral replication inhibition (SARS-CoV-2; concentration not given, Paris laboratory): inactive
CN1C(=O)[C@]23CC4=CC=C[C@H](O)[C@H]4N2C(=O)[C@@]1(CO)SS3 — inhibition (CAMK2A (Homo sapiens, UniProt Q9UQM7); enzyme activity, inhibitor; 10 µM): -35%
Cc1cccc(CN2CCN(C(c3ccccc3)c3ccc(Cl)cc3)CC2)c1 (centres unmarked) — IC50 (SARS-CoV-2; viral replication; Huh-7): > 2000 nM
CC(=O)OC(C)OC(=O)C(C)c1ccc(-c2ccccc2)c(F)c1 (centres unmarked) — GFP-positive cells (HEK-293T/ACE2; pseudovirus infection; VSV pseudotyped with SARS-CoV-2 spike; concentration not given; relative to: vehicle-treated): 81.1%
Oc1c(Br)cc(Br)cc1-c1[nH]c(Br)c(Br)c1Br — MIC (Brucella anthropi; ATCC 49687): 2 µM
COc1cc2c(cc1OC)C1CC(=O)C(CC(C)C)CN1CC2 (centres unmarked) — nuclei count (mouse MPNST tumor cells; high-content nuclear imaging, measured: cell number; 10 µM, 12 h, mean of 2 replicates; relative to: plate mean, higher = more cells): 0.133 z-score and 0.881 z-score
CCOC(=O)CC(SP(=S)(OC)OC)C(=O)OCC (centres unmarked) — remaining activity (uncharacterized protein (Anopheles coluzzii, UniProt A0A6E8VQK1); enzyme activity, inhibitor; Sf9 cell homogenate; 0.004545 µM, 0.1667 h, together with: α-naphthyl acetate substrate; relative to: no inhibitor): 104%
Cc1nn(-c2ccc(Cl)cc2)c2c1C(c1ccc(Br)cc1)C(C#N)=C(N)O2 (centres unmarked) — viral reduction (SARS-CoV-2; viral replication; Vero; 10 µM): 3.95%
CCCCCCCCCCCCCCCC(=O)NS(=O)(=O)OCC — MIC (Bacillus anthracis; Sterne 34F2): > 200 µg/mL
CN(C)c1ccc(N(Cc2cc(Cl)cs2)C(=O)Cc2cncc3ccccc23)cc1 — selectivity index (SARS-CoV-2; Caco-2, Omicron BA.5; relative to: CC50 over EC50): 257
COc1ccn(C)c(=O)c1C#N — remaining activity (DNA polymerase theta, ATPase domain (POLQ, Homo sapiens, UniProt O75417); enzyme activity, inhibitor; 77 µM; relative to: untreated): 102%
C[C@H]1O[C@@H](O[C@H]2[C@@H](O)C[C@H](O[C@H]3[C@@H](O)C[C@H](O[C@H]4CC[C@@]5(C)[C@H](CC[C@@H]6[C@@H]5CC[C@]5(C)[C@@H](C7=CC(=O)OC7)CC[C@]65O)C4)O[C@@H]3C)O[C@@H]2C)C[C@H](O)[C@@H]1O — IC50 (MDA-MB-231; cell migration, scratch wound): 46 nM
C[C@H]1O[C@@H](O[C@H]2[C@@H](O)C[C@H](O[C@H]3[C@@H](O)C[C@H](O[C@H]4CC[C@@]5(C)[C@H](CC[C@@H]6[C@@H]5CC[C@]5(C)[C@@H](C7=CC(=O)OC7)CC[C@]65O)C4)O[C@@H]3C)O[C@@H]2C)C[C@H](O)[C@@H]1O — parasite load (Plasmodium berghei; Huh-7, liver stage; 10 µM, 24 h; relative to: control): 16.6%
Cc1ccc(OCCn2c(C)c(C=C3C(=O)NC(=S)NC3=O)c3ccccc32)c(C)c1 — inhibition (rep main protease; viral replication, Gluc reporter; SARS-CoV-2; 20 µM): -5.98%
O=C(NC(=O)c1c(F)cccc1F)Nc1cc(Cl)c(OC(F)(F)C(F)C(F)(F)F)cc1Cl (centres unmarked) — nuclei count (mouse MPNST tumor cells; high-content nuclear imaging, measured: cell number; 10 µM, 12 h, mean of 2 replicates; relative to: plate mean, higher = more cells): 0.0709 z-score
Cc1cccc(C(C)c2cnc[nH]2)c1C (centres unmarked) — IC50 (SARS-CoV-2; viral replication; Huh-7): > 2000 nM
Cc1nn(-c2ccc(Cl)cc2)c2c1C(c1ccc(I)cc1)C(C#N)=C(N)O2 (centres unmarked) — viral reduction (SARS-CoV-2; viral replication; Vero; 1 µM): 0.556%
COc1ccccc1/C=C1\C(=O)Nc2ccccc21 — inhibition (rep main protease; viral replication, Gluc reporter; SARS-CoV-2; 20 µM): -0.926%
CC(C)C[C@H](NC(=O)[C@H](CO)NC(=O)[C@H](CC(C)C)NC(=O)[C@@H]1CCCN1C(=O)[C@H](CO)NC(=O)CNC(=O)[C@H](CC(C)C)NC(=O)[C@@H](N)CCCNC(=N)N)C(=O)O — IC50 (HLA class I histocompatibility antigen, A alpha chain (Homo sapiens, UniProt P04439); binding, competitor): 7640 nM

A few entries again (sample 2):
CCN(CC)CCNC(=O)c1cc(S(C)(=O)=O)ccc1OC: 2.93%
CO[C@H]1O[C@@H]2O[C@@]3(C)CC[C@H]4[C@H](C)CC[C@@H]([C@H]1C)[C@@]24OO3: 0.92%
N#Cc1ccccc1-c1cc(-c2ccccn2)cn(-c2ccccc2)c1=O: -5.6%
O=C(O)C(=O)CBr: -4.28%
CCc1cccc(CC)c1NC1=NCCN1: 0.27%
